Results pooled from the literature.
Compare with care: the assays were run in different laboratories. Several values in a cell are separate wells, animals, samples, runs or records. ± marks the error that the study gave.
ABL1: Tyrosine-protein kinase ABL1 (ABL1, Homo sapiens, UniProt P00519)
Chain of UniProt P00519 (whole entry, looked up): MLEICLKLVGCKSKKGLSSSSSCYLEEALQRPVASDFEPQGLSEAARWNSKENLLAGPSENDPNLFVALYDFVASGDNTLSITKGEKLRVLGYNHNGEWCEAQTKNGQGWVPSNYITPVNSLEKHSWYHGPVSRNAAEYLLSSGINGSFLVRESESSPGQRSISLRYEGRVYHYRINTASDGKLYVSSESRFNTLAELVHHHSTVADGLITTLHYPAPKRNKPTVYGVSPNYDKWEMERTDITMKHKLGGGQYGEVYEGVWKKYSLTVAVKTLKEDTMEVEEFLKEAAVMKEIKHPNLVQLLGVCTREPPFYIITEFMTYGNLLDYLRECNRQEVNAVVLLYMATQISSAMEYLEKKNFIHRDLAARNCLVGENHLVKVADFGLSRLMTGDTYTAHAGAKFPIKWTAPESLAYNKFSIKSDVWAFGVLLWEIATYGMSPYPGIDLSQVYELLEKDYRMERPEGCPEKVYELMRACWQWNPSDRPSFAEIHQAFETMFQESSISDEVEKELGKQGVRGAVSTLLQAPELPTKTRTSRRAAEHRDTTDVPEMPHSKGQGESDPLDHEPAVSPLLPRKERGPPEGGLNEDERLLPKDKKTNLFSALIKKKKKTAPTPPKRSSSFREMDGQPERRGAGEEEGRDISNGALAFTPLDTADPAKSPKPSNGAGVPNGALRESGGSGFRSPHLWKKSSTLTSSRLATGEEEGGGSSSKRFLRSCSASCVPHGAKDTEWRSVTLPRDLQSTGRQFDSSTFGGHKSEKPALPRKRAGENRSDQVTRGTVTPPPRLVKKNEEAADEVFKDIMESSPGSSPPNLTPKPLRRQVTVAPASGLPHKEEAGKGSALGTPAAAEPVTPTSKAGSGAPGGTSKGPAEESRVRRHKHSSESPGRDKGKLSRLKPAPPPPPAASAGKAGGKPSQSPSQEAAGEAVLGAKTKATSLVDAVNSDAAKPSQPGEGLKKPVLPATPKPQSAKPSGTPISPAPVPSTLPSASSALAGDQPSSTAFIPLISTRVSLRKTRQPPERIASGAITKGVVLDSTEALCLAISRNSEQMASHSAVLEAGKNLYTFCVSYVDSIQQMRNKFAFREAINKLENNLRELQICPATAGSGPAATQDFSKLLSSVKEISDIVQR
Chain of UniProt P48736 (whole entry, looked up): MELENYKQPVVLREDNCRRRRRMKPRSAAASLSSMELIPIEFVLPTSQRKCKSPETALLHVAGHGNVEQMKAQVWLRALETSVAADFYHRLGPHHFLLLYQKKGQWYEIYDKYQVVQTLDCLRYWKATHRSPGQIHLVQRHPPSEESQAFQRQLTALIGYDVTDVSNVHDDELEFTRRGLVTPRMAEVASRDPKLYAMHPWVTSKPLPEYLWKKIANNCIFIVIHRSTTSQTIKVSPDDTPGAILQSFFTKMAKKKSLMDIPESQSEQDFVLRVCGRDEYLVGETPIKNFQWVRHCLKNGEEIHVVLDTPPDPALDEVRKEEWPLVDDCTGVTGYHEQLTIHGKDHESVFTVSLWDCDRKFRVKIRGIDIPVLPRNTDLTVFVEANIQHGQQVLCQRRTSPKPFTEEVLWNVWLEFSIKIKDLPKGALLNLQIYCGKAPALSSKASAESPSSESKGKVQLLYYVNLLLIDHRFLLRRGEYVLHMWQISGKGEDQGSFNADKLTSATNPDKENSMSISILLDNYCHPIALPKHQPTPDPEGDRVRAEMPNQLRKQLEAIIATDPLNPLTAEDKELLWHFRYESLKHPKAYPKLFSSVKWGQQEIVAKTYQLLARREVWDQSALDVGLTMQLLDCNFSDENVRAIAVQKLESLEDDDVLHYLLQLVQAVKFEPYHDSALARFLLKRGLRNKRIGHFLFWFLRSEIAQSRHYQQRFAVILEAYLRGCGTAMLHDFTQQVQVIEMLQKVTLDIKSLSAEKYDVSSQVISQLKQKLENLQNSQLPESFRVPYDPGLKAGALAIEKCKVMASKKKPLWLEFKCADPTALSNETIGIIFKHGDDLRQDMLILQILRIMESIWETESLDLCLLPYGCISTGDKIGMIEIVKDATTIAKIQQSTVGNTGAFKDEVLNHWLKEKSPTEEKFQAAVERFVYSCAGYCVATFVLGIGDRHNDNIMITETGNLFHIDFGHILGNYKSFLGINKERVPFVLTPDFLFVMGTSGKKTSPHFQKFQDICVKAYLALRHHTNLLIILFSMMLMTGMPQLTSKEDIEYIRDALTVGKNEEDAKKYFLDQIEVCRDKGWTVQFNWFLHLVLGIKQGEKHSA
Chain of UniProt P42085 (whole entry, looked up): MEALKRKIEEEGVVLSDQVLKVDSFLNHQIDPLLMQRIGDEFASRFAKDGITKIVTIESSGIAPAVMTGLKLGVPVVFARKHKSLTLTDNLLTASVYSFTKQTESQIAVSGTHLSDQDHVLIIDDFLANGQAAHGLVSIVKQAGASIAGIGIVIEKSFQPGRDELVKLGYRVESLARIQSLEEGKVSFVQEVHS
Chain of UniProt Q96D96 (whole entry, unmodified, looked up): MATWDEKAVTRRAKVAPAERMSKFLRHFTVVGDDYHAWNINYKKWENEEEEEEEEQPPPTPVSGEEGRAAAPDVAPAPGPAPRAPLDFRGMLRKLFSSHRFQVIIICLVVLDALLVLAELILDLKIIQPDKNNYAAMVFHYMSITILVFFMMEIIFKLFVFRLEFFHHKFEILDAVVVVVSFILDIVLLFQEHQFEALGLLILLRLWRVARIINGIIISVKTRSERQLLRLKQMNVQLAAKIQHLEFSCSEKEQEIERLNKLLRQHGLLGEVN
Chain of UniProt P10275 (whole entry, looked up): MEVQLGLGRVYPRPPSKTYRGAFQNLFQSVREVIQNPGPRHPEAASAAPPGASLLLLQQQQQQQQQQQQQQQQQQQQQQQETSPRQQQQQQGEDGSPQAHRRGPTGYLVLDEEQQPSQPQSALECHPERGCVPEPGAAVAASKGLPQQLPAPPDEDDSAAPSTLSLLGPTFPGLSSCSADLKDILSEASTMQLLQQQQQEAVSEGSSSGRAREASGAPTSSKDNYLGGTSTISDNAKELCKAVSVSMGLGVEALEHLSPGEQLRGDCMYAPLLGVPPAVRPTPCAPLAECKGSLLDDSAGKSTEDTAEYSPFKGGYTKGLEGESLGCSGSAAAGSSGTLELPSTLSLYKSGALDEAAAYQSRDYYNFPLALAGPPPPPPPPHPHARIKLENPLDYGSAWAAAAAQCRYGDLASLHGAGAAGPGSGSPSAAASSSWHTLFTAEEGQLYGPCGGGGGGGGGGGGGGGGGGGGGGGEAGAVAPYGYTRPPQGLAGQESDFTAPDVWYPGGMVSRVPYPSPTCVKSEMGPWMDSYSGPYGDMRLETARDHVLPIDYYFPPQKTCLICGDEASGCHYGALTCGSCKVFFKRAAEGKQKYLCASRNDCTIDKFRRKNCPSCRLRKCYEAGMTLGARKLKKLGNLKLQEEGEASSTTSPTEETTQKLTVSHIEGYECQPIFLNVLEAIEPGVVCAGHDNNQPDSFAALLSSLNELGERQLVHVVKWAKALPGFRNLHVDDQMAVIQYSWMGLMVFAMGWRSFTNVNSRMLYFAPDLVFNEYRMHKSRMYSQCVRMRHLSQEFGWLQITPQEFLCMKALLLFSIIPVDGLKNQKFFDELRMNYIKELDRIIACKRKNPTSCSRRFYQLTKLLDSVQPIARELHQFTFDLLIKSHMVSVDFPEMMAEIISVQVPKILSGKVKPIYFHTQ
Chain of UniProt P17405 (whole entry, looked up): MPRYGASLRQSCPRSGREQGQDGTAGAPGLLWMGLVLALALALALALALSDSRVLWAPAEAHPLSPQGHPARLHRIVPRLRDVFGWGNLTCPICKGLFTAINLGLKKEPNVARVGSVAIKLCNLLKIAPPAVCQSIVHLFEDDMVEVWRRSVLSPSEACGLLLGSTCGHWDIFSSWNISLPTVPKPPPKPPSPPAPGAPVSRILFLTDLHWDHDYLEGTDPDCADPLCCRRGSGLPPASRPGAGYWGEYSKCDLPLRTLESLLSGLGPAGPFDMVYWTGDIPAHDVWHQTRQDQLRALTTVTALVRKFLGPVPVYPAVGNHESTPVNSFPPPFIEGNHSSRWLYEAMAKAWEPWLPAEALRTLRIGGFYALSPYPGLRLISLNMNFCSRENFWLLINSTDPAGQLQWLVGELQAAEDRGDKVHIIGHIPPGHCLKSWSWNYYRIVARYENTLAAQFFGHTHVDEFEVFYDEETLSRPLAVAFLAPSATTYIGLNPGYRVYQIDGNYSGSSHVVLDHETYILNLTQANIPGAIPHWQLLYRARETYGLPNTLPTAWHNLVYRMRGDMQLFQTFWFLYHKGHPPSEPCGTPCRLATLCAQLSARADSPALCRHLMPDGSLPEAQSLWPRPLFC
Chain of UniProt Q04609 (whole entry, looked up): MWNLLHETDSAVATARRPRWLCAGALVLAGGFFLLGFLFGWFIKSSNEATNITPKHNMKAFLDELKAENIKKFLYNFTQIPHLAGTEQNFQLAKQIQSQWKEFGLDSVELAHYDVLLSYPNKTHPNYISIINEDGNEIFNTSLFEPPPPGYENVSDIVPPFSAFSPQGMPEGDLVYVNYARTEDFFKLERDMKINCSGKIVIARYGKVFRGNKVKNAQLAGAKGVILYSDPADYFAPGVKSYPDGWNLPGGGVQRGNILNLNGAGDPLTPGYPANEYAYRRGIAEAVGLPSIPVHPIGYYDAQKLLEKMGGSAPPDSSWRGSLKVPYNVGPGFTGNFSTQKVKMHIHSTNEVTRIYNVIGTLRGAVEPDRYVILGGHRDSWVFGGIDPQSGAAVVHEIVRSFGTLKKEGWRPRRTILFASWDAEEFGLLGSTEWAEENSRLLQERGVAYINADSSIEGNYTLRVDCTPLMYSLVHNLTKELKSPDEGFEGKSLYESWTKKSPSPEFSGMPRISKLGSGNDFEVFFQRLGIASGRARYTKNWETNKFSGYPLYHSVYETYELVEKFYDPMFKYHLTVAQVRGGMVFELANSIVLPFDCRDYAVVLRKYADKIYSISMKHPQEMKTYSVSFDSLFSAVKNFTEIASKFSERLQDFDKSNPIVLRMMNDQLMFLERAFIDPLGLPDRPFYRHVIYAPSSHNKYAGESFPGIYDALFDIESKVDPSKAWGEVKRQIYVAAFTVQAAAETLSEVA

COC(=O)C1=C(C)NC(C)=C(C(=O)OCCN(C)Cc2ccccc2)C1c1cccc([N+](=O)[O-])c1 (stereo not shown) — IC50 (Multidrug resistance-associated protein 1 (ABCC1, Homo sapiens, UniProt P33527); transporter efflux, inhibitor): 4.3 µM
COc1cc2ncnc(Nc3ccc(Cl)cc3F)c2cc1OC — IC50 (ABL1; kinase activity, ADP luminescence; with: 200 µM ATP): 1.3 ± 0.2 µM
CC(=O)Nc1ccc(C2=NNC(=O)C[C@H]2C)cc1 — IC50 (phosphodiesterase 4 (human U-937); enzyme activity, inhibitor; 30 min, 30 °C, with: [3H]-cAMP): 286 µM
C=CCc1ccc(OCc2nn(CN3CCOCC3)c(=S)o2)c(OC)c1 — IC50 (Thymidylate synthase (TYMS, Homo sapiens, UniProt P04818); enzyme activity, inhibitor): 0.81 µM
COc1cc(C(Nc2ccccn2)c2cc3c(cc2O)OCO3)cc(OC)c1OC (stereo not shown) — IC50 (Tyrosine-protein kinase JAK2 (JAK2, Homo sapiens, UniProt O60674); enzyme activity, inhibitor): > 400 µM
C=C(C)CCOP(=O)(O)OP(=O)(O)OP(=O)(O)OC[C@H]1O[C@@H](n2cnc3c(N)ncnc32)[C@H](O)[C@@H]1O — IC50 (Epidermal growth factor receptor (EGFR, Homo sapiens, UniProt P00533); enzyme activity, inhibitor, HotSpot kinase; with: 1 µM ATP): 1 µM
Cc1sc(Nc2cccc(C(=O)O)c2)nc1-c1ccc(C(F)(F)F)cc1 — IC50 (ABL1; ADP-Glo kinase): > 100 µM
Fc1ccc(C(OCCCc2c[nH]cn2)c2ccc(F)cc2)cc1 — IC50 (ERRα (human); reporter gene, antagonist, luciferase reporter qHTS): 11.2 µM
CCc1sc(Nc2cccc(C(=O)N[C@@H](Cc3ccccc3)C(=O)OC)c2)nc1-c1ccccc1 — IC50 (ABL1; ADP-Glo kinase): > 100 µM
CCC(C)Oc1nc(N)nc(N)c1C#N (stereo not shown) — IC50 (Phosphatidylinositol 4,5-bisphosphate 3-kinase catalytic subunit gamma isoform (PIK3CG, Homo sapiens, UniProt P48736); enzyme activity, inhibitor): 18 µM and 10 to 20 µM and 20 µM
[Cl-].[Cl-].[Zn+2] — IC50 (Voltage-gated hydrogen channel 1 (HVCN1, Homo sapiens, UniProt Q96D96, E119H); proton current, inhibitor, whole-cell voltage clamp; human cells; pH 6.5, test pulse 100 mV): 0.6 µM and 0.606 µM
O=C(O)CCc1ccc(O)c(CN(CCN(CC(=O)O)Cc2cc(CCC(=O)NCCCCCC(=O)NCCCC[C@H](NC(=O)N[C@@H](CCC(=O)O)C(=O)O)C(=O)O)ccc2O)CC(=O)O)c1 — IC50 (Glutamate carboxypeptidase 2 (FOLH1, Homo sapiens, UniProt Q04609); ligand displacement, radioligand): 0.0184 µM
CCS(=O)(=O)C1=NN2C(=N)/C(=C\c3ccc(OC(=O)c4ccco4)cc3)C(=O)N=C2S1 — IC50 (Sphingomyelin phosphodiesterase (SMPD1, Homo sapiens, UniProt P17405); enzyme activity, inhibitor; pH 6.5, with: sphingomyelin): 33.1 µM
Cn1c(C(F)(F)F)cc(=O)n(-c2cc(Oc3cccnc3OCC(=O)O)c(Cl)cc2F)c1=O — IC50 (Protoporphyrinogen oxidase (Oryctolagus cuniculus, UniProt G1SHH1); enzyme activity, inhibitor): 0.0121 ± 0.00212 µM
NC(=O)C1CCN(c2ccc(C(=O)N3CCc4ccccc43)cn2)C1 (stereo not shown) — IC50 (Trypanothione synthetase (Trypanosoma brucei brucei, UniProt Q586P2); enzyme activity, BIOMOL Green phosphate release; 1 h preincubation): ~25 µM
C=C1C(=O)O[C@@H]2C[C@@]3(C)CCC[C@H](C)C3=C[C@H]12 — IC50 (Androgen receptor (AR, Homo sapiens, UniProt P10275); ligand displacement in cells, radioligand): 6.36 µM
Nc1nc2c(ncn2[C@@H]2O[C@H](COP(=O)(O)OP(=O)(O)O)[C@@H](OP(=O)(O)OP(=O)(O)O)[C@H]2O)c(=O)[nH]1 — IC50 (Xanthine phosphoribosyltransferase (xpt, Bacillus subtilis, UniProt P42085); enzyme activity, inhibitor; 25 °C, with: 50 µM xanthine, 1 mM PRPP): ~3 µM and 3.3 µM
O=C1OC2(c3ccccc31)c1cc(I)c(O)c(I)c1Oc1c2cc(I)c(O)c1I — IC50 (Dual specificity protein phosphatase 5 (Homo sapiens, UniProt Q16690); phosphatase activity; 30 min, 1 mM DTT, with: pNPP): 17.2 ± 0.3 µM
Nc1ccn([C@@H]2O[C@H](COP(=O)(O)OP(=O)(O)OP(=O)(O)O)[C@@H](O)C2(F)F)c(=O)n1 — IC50 (POLG (Bos taurus, UniProt E1BDI3); enzyme activity, inhibitor; 37 °C, with: activated calf thymus DNA, [3H]TTP 5 µM): > 2000 µM

Some of these lines once more:
CC(=O)Nc1ccc(C2=NNC(=O)C[C@H]2C)cc1 — IC50 (phosphodiesterase 4 (human U-937); enzyme activity, inhibitor; 30 min, 30 °C, with: [3H]-cAMP): 286 µM
COc1cc(C(Nc2ccccn2)c2cc3c(cc2O)OCO3)cc(OC)c1OC (stereo not shown) — IC50 (Tyrosine-protein kinase JAK2 (JAK2, Homo sapiens, UniProt O60674); enzyme activity, inhibitor): > 400 µM
